Measured values gathered from unrelated publications.
Protocols differ between the studies behind these lines. Several values in a cell are separate wells, animals, samples, runs or records. ± gives the spread as reported.

SMILES = C=CC(=O)NC1CCN(c2ncc3ncnc(Nc4ccc(Oc5ccc6c(c5)ncn6C)c(C)c4)c3n2)CC1; test system = human, male, plasma; conditions = oral, 30 mg single dose, fasted, median; Tmax = 1.5 h
SMILES = CCOc1c([C@H](C)n2nc(C)c3c(N)ncnc32)cc(Cl)c(F)c1[C@@H]1CNC(=O)C1; test system = human, fasted, plasma; conditions = oral, dose not given, median; Tmax = ~1 h
SMILES = COc1cc([C@H]2Oc3cc([C@H]4Oc5cc(O)cc(O)c5C(=O)[C@@H]4O)ccc3O[C@@H]2CO)ccc1O; test system = OATP1B1/1B3 humanized mice, plasma; conditions = oral gavage, 500 mg/kg silymarin, median; Tmax = 0.25 h
SMILES = COc1c(OCCCN2CCOCC2=O)ccc2c3n(c(=NC(=O)c4cnc(N)nc4)nc12)CCN3; test system = human, plasma; conditions = 0.8 mg/kg of copanlisib, cycle 1 day 1, median, with: gemcitabine; Tmax = 4 h
SMILES = N#Cc1cc(NC(=O)[C@H]2c3ccccc3C(=O)N(CC(F)(F)F)[C@@H]2c2cccnc2)ccc1F; test system = human, plasma; conditions = oral, 300 mg, median; Tmax = 1.6 h
SMILES = C[C@H]1[C@@H](O)O[C@@H]2O[C@@]3(C)CC[C@H]4[C@H](C)CC[C@@H]1[C@@]24OO3; test system = human, both sexes, plasma; conditions = oral, dose not given, fixed-dose combination; Tmax = 0.55 h
SMILES = C[C@H](NC(=O)/C(C#N)=C/c1cccc(Br)n1)c1ccccc1; test = LC-MS/MS; test system = human, plasma; conditions = oral, 4 mg/kg, cycle 1 day 8; Tmax = 0.5 h
SMILES = Cc1ncnc2c1ccn2[C@@H]1C[C@H](Oc2cc(C(F)F)c(F)c3c2CNCC3)[C@@H](O)[C@H]1O; test system = human; conditions = oral, 1 mg twice daily; Tmax = 0.5 h and 1 h
SMILES = CC#CC(=O)N1CC[C@@H](n2cc(-c3ccc(Oc4c(F)cccc4F)cc3)c3c(N)n[nH]c(=O)c32)C1; test system = human patients; conditions = oral; Tmax = 1 to 4 h
SMILES = Cn1cncc1[C@@](N)(c1ccc(Cl)cc1)c1ccc2c(c1)c(-c1cccc(Cl)c1)cc(=O)n2C; test system = human, plasma; conditions = oral, 300 mg/m^2, range, first dose; Tmax = 1.7 to 24 h
SMILES = Nc1ccc(S(=O)(=O)Nc2ccccn2)cc1; test system = human; conditions = oral, 1000 mg, day 1, sulfasalazine alone; Tmax = 10 h
SMILES = CNC(=O)c1cc(Oc2ccc(NC(=O)Nc3ccc(Cl)c(C(F)(F)F)c3)cc2)ccn1; test system = human, plasma; conditions = oral, 400 mg daily, median, dose level -1, with: carboplatin AUC 3, gemcitabine 650 mg/m2; Tmax = 2.6 h
SMILES = Cl.[2H]C([2H])([2H])CC(=O)c1cnc(NC(=O)C2CC2)cc1Nc1cccc(-c2ncn(C([2H])([2H])[2H])n2)c1OC; test = median; test system = human; conditions = oral, 100 mg single dose, fasted, liquid; Tmax = 1 h
SMILES = CCS(=O)(=O)Nc1ccc(Oc2ccc(F)cc2F)c(-c2cn(C)c(=O)c3[nH]ccc23)c1; test system = human, plasma; conditions = oral, 2.5 mg, cycle 1 day 8, median; Tmax = 3 h
SMILES = C#C[C@]1(COP(=O)(O)OP(=O)(O)O)O[C@@H](n2cnc3c(N)nc(F)nc32)C[C@@H]1O; test = measured: islatravir triphosphate; test system = human, PBMC; conditions = oral, 400 mg single dose; Tmax = 6 h
SMILES = NC(CO)(CO)CCc1ccc(Sc2cccc(OCc3ccccc3)c2)cc1Cl; test system = human male fasted, whole blood; conditions = oral, 3 mg, with: cyclosporin 100 mg b.i.d.; Tmax = 8 h
SMILES = N#CCC1CCN(c2nc(Nc3ccc(N4CCC(O)CC4)cc3)c3c(=O)[nH]ncc3n2)CC1; test = LC-MS/MS; test system = human, plasma; conditions = oral, 40 mg once daily, day 1, median; Tmax = 2 h
SMILES = C#C[C@]1(CO)O[C@@H](n2cnc3c(N)nc(F)nc32)C[C@@H]1O; test system = human, plasma; conditions = oral, 400 mg, single dose, median; Tmax = 0.5 h
SMILES = Cc1cc(-c2nnc(N)nc2-c2ccc(F)cc2)cc(Cl)n1; test system = human patients, plasma; conditions = oral, 75 mg capsule, single dose, median; Tmax = 1.5 h
SMILES = Cc1noc(C)c1-c1cc(C(O)(c2ccccn2)c2ccccn2)c2nc(C3CC3)[nH]c2c1; test system = human patients, fasted, plasma; conditions = oral, 9 mg once daily, cycle 1 day 8; Tmax = 0.72 h
SMILES = CC(=O)O.NC(=O)c1cnc(N[C@@H]2CCCC[C@@H]2N)nc1Nc1cccc(-n2nccn2)c1; test system = human, plasma; conditions = oral, 33 mg once daily; Tmax = 2 h
SMILES = CCCCCCCCCCCCCCCC(=O)N[C@@H](CCC(=O)NCCCC[C@@H]1NC(=O)[C@H]([C@@H](C)CC)NC(=O)[C@@H](NC(=O)[C@@H]2CCCN2C(=O)[C@H](Cc2ccccc2)NC(=O)[C@H](Cc2c[nH]cn2)NC(=O)[C@@H](NC(=O)[C@H](CC(=O)O)NC(=O)CC(C)C)[C@@H](C)O)CSSC[C@@H](C(=O)N[C@@H](CCCCN)C(N)=O)NC(=O)CNC(=O)[C@H](CCCCN)NC(=O)[C@H](CO)NC(=O)[C@H](CCCNC(=N)N)NC(=O)[C@@H]2CCCN2C(=O)[C@H](CCC(=O)O)NC(=O)[C@H](Cc2ccccc2)NC1=O)C(=O)O; test system = healthy human, plasma; conditions = subcutaneous, 20 mg, aqueous formulation; Tmax = 1 h
SMILES = Cc1cc(/C=C/C#N)cc(C)c1Nc1ccnc(Nc2ccc(C#N)cc2)n1; test system = human, normal renal function, plasma; conditions = oral, steady state, fixed-dose combination; Tmax = 8 h
SMILES = N#CCNC(=O)c1ccc(-c2ccnc(Nc3ccc(N4CCOCC4=O)cc3)n2)cc1; test system = healthy human volunteers, plasma; conditions = 100 mg momelotinib once daily, day 7, fed, momelotinib alone; Tmax = 2.5 h
SMILES = O=C(c1cc(Cc2n[nH]c(=O)c3ccccc23)ccc1F)N1CCN(C(=O)C2CC2)CC1; test system = human, female, plasma; conditions = oral, 200 mg; Tmax = 2 h
SMILES = Cc1cc(Nc2cc3ncccc3c(N[C@@H]3C[C@H]4CC[C@@H](C3)N4CCC#N)n2)n[nH]1; test system = human, plasma; conditions = 100 mg single dose, median; Tmax = 1 h
SMILES = Cc1cc(-c2nccc3c2ccn3CC(=O)Nc2ccc(-c3cnccn3)cn2)ccn1; test system = human, plasma; conditions = oral, 20 mg once daily, day 1, median; Tmax = 0.98 h
SMILES = CCn1c(=O)c(-c2cc(NC(=O)Nc3ccccc3)c(F)cc2Br)cc2cnc(NC)cc21; test system = human, plasma; conditions = oral, 150 mg once daily, steady state; Tmax = 6 h
SMILES = CC(F)(F)c1cc(F)ccc1-c1sc2cc(O)ccc2c1Oc1ccc(/C=C/C(=O)O)cc1; test system = human patients, serum; conditions = oral, 300 mg once daily, cycle 1 day 28, regular meal, median, with: alpelisib; Tmax = 2.1 h
SMILES = COc1ccc([C@@H](O)c2cc(-c3ncnc4cc(N5CCOCC5)ccc34)c(F)cc2Cl)nn1; test system = human, plasma; conditions = oral, 200 mg once daily, single dose, median; Tmax = 1.42 h
SMILES = CO[C@@H]1[C@H](OC(=O)N2CC(CCN3CCOCC3)C2)CC[C@]2(CO2)[C@H]1[C@@]1(C)O[C@@H]1CC=C(C)C; test system = humans, plasma; conditions = subcutaneous, 0.2 mg twice weekly, fifth dose; Tmax = 0.5 h
SMILES = CNC(=O)c1ccc(-c2cnc3ncc(Cc4ccc5ncccc5c4)n3n2)cc1F; test system = human, plasma; conditions = oral, 200 mg, median; Tmax = 1.25 h
SMILES = Cn1nnc2c(C(N)=O)ncn2c1=O; test system = human patients, plasma; conditions = oral, 55 mg/m2, day 5, dose level DL6, median, with: talazoparib 600 µg/m2; Tmax = 1 h
SMILES = Cc1cn(C(=O)c2c(-c3c(Cl)cc(Cl)cc3Cl)noc2C(C)(C)F)c2cccc(/C=C/C(=O)O)c12; test system = human patients; conditions = 1400 mg bid, cycle 1 day 1; Tmax = 6 h
SMILES = CC(=O)N(C)[C@H]1CCN(C(=O)c2cnc3c(c2)C[C@](C)(c2ccc(F)cc2)N3)C1; test system = human, male, plasma; conditions = oral, 60 mg once daily, steady state, median; Tmax = 1 h
SMILES = C[C@H](O)C(=O)C1=Nc2c(nc(N)[nH]c2=O)NC1; test system = human; conditions = 20 mg/kg, compound alone; Tmax = 5 h
SMILES = Cn1ncnc1[C@H]1c2n[nH]c(=O)c3cc(F)cc(c23)N[C@@H]1c1ccc(F)cc1; test system = human patients, plasma; conditions = oral, 600 µg/m2 twice daily day 1, day 5, dose level DL5, median, with: temozolomide 40 mg/m2 daily days 2-6; Tmax = 1 h
SMILES = CC(C)[C@H](N)C(=O)NCCCS(=O)(=O)O; test = median; test system = human, plasma; conditions = oral, 256.5 mg once daily days 8-14, day 14, fasted, capsule; Tmax = 0.5 h
SMILES = Fc1ccc([C@@H]2CCNC[C@H]2COc2ccc3c(c2)OCO3)cc1; test system = human, CYP2D6 intermediate metabolizers; conditions = oral, 20 mg, steady state, geometric mean; Tmax = 4.4 h
SMILES = CO[C@H]1/C=C/O[C@@]2(C)Oc3c(C)c(O)c4c(O)c(c(/C=N/N5CCN(C)CC5)c(O)c4c3C2=O)NC(=O)/C(C)=C\C=C\[C@H](C)[C@H](O)[C@@H](C)[C@@H](O)[C@@H](C)[C@H](OC(C)=O)[C@@H]1C; test system = healthy human subjects, plasma; conditions = oral, first dose, with: glecaprevir and pibrentasvir single dose; Tmax = 4 h
SMILES = CCn1cc(C(=O)N2CCOCC2)c(=O)c2cc(NC3Cc4ccccc4C3)cnc21; test system = human, fed; conditions = oral suspension, 1200 mg single dose, median; Tmax = 8 h
SMILES = Cc1cccc(F)c1N1CCC(N2Cc3cn(CC(C)(F)F)nc3N(Cc3ccccc3C(F)(F)F)C2=O)CC1; test system = human healthy subjects, plasma; conditions = oral, 100 mg, single dose, fed, median; Tmax = 2 h
SMILES = CC(C)NC(=O)COc1cccc(-c2nc(Nc3ccc4[nH]ncc4c3)c3ccccc3n2)c1; test system = human male, plasma; conditions = oral, 200 mg, day 6, fed, alone, median; Tmax = 2 h
SMILES = N#Cc1ccc(C(c2ccc(C#N)cc2)n2cncn2)cc1; test system = human; conditions = 125 mg; Tmax = 2 h
SMILES = COC(=O)N[C@@H](C)CNc1nccc(-c2cn(C(C)C)nc2-c2cc(Cl)cc(NS(C)(=O)=O)c2F)n1; test system = human, plasma; conditions = oral, 50 mg, with: posaconazole 400 mg twice daily; how to read = median; Tmax = 1.49 h
SMILES = CN(CC#N)C(=O)C[C@H](Nc1nc2ccccc2[nH]1)c1cccc(C(F)(F)F)c1; test system = human; conditions = intravenous infusion, 4 mg/kg, 1 mg/mL formulation; Tmax = 0.49 ± 0.01 h
SMILES = COc1ncc(-c2nc3c(n2C(C)C)[C@H](c2ccc(Cl)cc2)N(c2cc(Cl)cn(C)c2=O)C3=O)c(OC)n1; test = LC-MS/MS, noncompartmental; test system = human, plasma; conditions = oral, 150 mg, C2D1, high-dose, median; Tmax = 3 h
SMILES = Cc1cc(C)c(CNC(=O)c2cc(Cl)c3c(c2C)O[C@@](C)([C@H]2CC[C@H](N(C)C)CC2)O3)c(=O)[nH]1; test = measured: total radioactivity; test system = human, male, plasma; conditions = oral, 200 mg, [14C]-labelled, median; Tmax = 2.5 h
SMILES = C[C@H](Oc1ccc(Br)cc1-c1ccon1)C(=O)O; test = LC-MS/MS, non-compartmental; test system = human, plasma; conditions = 600 mg once daily, day 10, multiple ascending dose, median; Tmax = 2.5 h
SMILES = COc1nnc2ccc(N3CCC(c4ccc(OCCN5CCN(C)C(=O)[C@H]5C)cc4)CC3)nn12; test system = human, plasma; conditions = oral, 2 mg once daily, multiple dose, monotherapy; Tmax = 0.98 h
SMILES = CC1(COc2ccc3c(c2)ncn3-c2ccc3cccc(N4CCC(N)CC4)c3n2)COC1; test system = human patients, recurrent/progressive HGG or DIPG, serum; conditions = oral, 220 mg/m^2, day 1, median; Tmax = 2 h
SMILES = CCCCOc1nc(N)c2c(n1)N(Cc1cccc(CN3CCCC3)c1)CC(=O)N2; test system = human; conditions = oral, 2 mg, median; Tmax = 3 h
SMILES = CC(C)(C(=O)NC1C2CC3CC1CC(C(N)=O)(C3)C2)N1CCN(c2ccc(C(F)(F)F)cn2)CC1 (stereo not shown); test system = human, plasma; conditions = 50 mg once daily, 5 days, median; Tmax = 2.6 h
SMILES = C#C[C@]1(COP(=O)(O)O)O[C@@H](n2cnc3c(N)nc(F)nc32)C[C@@H]1O; test = measured: islatravir triphosphate; test system = human, PBMC; conditions = oral, 400 mg single dose; Tmax = 6 h
SMILES = CCCCCCCOc1ccc(CCC(N)(CO)CO)cc1C(F)(F)F.Cl; test system = healthy human males, plasma; conditions = oral, 0.75 mg, day 1, median; Tmax = 12 h

For quick reference, copied from above:
SMILES = CCCCCCCOc1ccc(CCC(N)(CO)CO)cc1C(F)(F)F.Cl; test system = healthy human males, plasma; conditions = oral, 0.75 mg, day 1, median; Tmax = 12 h
SMILES = CCS(=O)(=O)Nc1ccc(Oc2ccc(F)cc2F)c(-c2cn(C)c(=O)c3[nH]ccc23)c1; test system = human, plasma; conditions = oral, 2.5 mg, cycle 1 day 8, median; Tmax = 3 h
SMILES = COc1ccc([C@@H](O)c2cc(-c3ncnc4cc(N5CCOCC5)ccc34)c(F)cc2Cl)nn1; test system = human, plasma; conditions = oral, 200 mg once daily, single dose, median; Tmax = 1.42 h
SMILES = CCn1c(=O)c(-c2cc(NC(=O)Nc3ccccc3)c(F)cc2Br)cc2cnc(NC)cc21; test system = human, plasma; conditions = oral, 150 mg once daily, steady state; Tmax = 6 h
